Assay results collected from several papers.
Numbered parts are unrelated; each lists some results of a single study. Positions count from the first letter of the parent shown.
Chain of UniProt Q16644 (whole entry, looked up): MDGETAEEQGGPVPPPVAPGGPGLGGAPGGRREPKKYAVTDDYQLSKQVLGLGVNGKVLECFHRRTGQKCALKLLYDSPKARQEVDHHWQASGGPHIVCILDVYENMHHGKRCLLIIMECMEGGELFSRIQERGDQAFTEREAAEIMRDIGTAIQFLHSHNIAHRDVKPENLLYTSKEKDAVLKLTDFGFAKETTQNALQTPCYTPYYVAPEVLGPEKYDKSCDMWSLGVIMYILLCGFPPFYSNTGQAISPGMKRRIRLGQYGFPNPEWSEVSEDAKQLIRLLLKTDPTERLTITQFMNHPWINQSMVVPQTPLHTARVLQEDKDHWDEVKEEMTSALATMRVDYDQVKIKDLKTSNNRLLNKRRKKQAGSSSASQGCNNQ

Set 1 — target: CCND1, cyclin fold, Cln2 fusion (human); method: yeast growth competition, sequencing; medium: yeast; setting: weak parent motif; baseline: not given; reading: higher = stronger binding; starting sequence: viral docking peptide; TSVRRALFTGGSD
Substitution | normalised enrichment score
R5M | 0.254
L7R | 0.313
T9W | 0.528
G11W | 0.347
A6Q | 0.958
F8C | -0.246
L7F | -0.126
R5G | 0.241

Set 2 — read-out: peptide-MHC binding; form: peptide; concentration: concentration not given
Target: HLA class I histocompatibility antigen, A alpha chain, allele A*80:01 (Homo sapiens, UniProt P04439)
Molecule | binding
FSDLCNFLI | inactive
ILMARYMSK | inactive
YFHKRDMRL | inactive
LTSSSKYTY | inactive
SIYYTLVRM | inactive
WVDSTPPPG | inactive
QVKRREGMF | inactive
RFRKKKKVY | inactive

Set 3 — target: UBE2D4 UBC core domain (UniProt Q9Y2X8); method: yeast two-hybrid; medium: yeast; setting: mostly zero background; baseline: not given; reading: higher = stronger interaction
B1: RNF112 RING domain (UniProt Q9ULX5); chain QPMAPRELPTCSICLERLRDPISLDCGHDFCIRCFSTHRLPGCEPPCCPECRKICKQKRGLR
B2: TRIM15 RING domain (UniProt Q9C019); chain SLKVVHELPACTLCAGPLEDAVTIPCGHTFCRLCLPALSQMGAQSSGKILLCPLCQEEEQAETPMA
B3: TRIM55 RING domain (UniProt Q9BYV6); chain TMDNLEKQLICPICLEMFTKPVVILPCQHNLCRKCASDIFQASNPYLPTRGGTTMASGGRFRCPSCRHEVVLDRHG
B4: RNF32 RING domain (UniProt Q9H0A6); chain SLLQGDSVQPCPICKEEFELRPQVLLSCSHVFHKACLQAFEKFTNKKTCPLCRKNQYQTRVIH
B5: RNF150 RING domain (UniProt Q9ULK6); chain DKETESDFDNCAVCIEGYKPNDVVRILPCRHLFHKSCVDPWLLDHRTCPMCKMNILKALGIP
Construct (chain): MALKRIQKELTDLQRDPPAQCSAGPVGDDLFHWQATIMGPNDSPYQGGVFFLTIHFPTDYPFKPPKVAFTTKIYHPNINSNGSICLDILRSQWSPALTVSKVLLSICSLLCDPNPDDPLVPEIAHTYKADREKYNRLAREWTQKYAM
Molecule | lacZ reporter activity
KRQCSDVDDICSICQAEFQKPILLICQHIFCEECMTLWFNREKTCPLCRTVISDHINKW (RNFT1 RING domain (UniProt Q5M7Z0)) | 0
KIKDLNEHIVCCLCAGYFVDATTITECLHTFCKSCIVKYLQTSKYCPMCNIKIHETQPLL (PCGF1 RING domain (UniProt Q9BSM1)) | 0
B1 (RNF112 RING domain) | 0
B2 (TRIM15 RING domain) | 0
B3 (TRIM55 RING domain) | 0
B4 (RNF32 RING domain) | 0
B5 (RNF150 RING domain) | 16100
FLKKLEQSFMCVCCQELVYQPVTTECFHNVCKDCLQRSFKAQVFSCPACRHDLGQNYIMI (UHRF2 RING domain (UniProt Q96PU4)) | 7410

Further values, each from its own experiment
SMILES | target | read-out | mode | concentration | baseline | quantity | result
O=C1NC(=O)c2c1c1c3ccccc3n3c1c1c2c2ccccc2n1[C@H]1CC[C@@H]3O1 | MAP kinase-activated protein kinase 3 (MAPKAPK3, Homo sapiens, UniProt Q16644) | enzyme activity | inhibitor | 0.5 µM | control | remaining activity | 93.1%

A few entries again (set 2):
Molecule | binding
ILMARYMSK | inactive
YFHKRDMRL | inactive
LTSSSKYTY | inactive
SIYYTLVRM | inactive
